{"data": "Results from different studies", "organism": "Pseudomonas aeruginosa", "note": "Compare with care: the assays were run in different laboratories. Numbers after ± are the reported error."}
{"SMILES": "S=c1n(CN2CCN(c3ccccc3)CC2)nc(C23CC4CC(CC(C4)C2)C3)n1-c1ccccc1", "strain": "IFO 3448", "dose": "200 µg/disc", "time": "24 h", "temperature": "37 °C", "inhibition zone diameter": "10 mm"}
{"SMILES": "CC(=NNC(=N)N)c1nnn(-c2ccc(C#CC3(O)CCCCC3)cc2)c1C", "strain": "ATCC 10145", "tested at": "concentration not given", "inhibition zone diameter": "21.7 ± 0.47 mm"}
{"SMILES": "CCN1CCN(Cn2nc(C34CC5CC(CC(C5)C3)C4)n(-c3ccccc3)c2=S)CC1", "strain": "IFO 3448", "dose": "200 µg/disc", "time": "24 h", "temperature": "37 °C", "inhibition zone diameter": "< 10 mm"}
{"SMILES": "CC(=O)[O-].O.O.O.O.[Co+2].[O-]c1ccc(Br)cc1C=NCCN1CCOCC1", "dose": "20 µL of 100 µM per disc", "inhibition zone diameter": "13 mm"}
{"SMILES": "Cc1cc(O)c2c(c1)C(=O)c1cc3oc(=O)cc(-c4ccccc4)c3c(O)c1C2=O", "strain": "MTCC 2453", "dose": "100 µg/disc", "inhibition zone diameter": "8 mm"}
{"SMILES": "CCOC(=O)C1=C(C)NC2=C(C(=O)CC(C)(C)C2)C1c1ccc(OCC(=O)NN=Cc2cc(Br)c(O)c(Br)c2)cc1OCC(=O)NN=Cc1cc(Br)c(O)c(Br)c1 (stereo not drawn)", "strain": "DSM 50070", "tested at": "concentration not given", "time": "24 h", "temperature": "37 °C", "inhibition zone diameter": "6.1 ± 0.01 mm"}
{"SMILES": "CO[C@H]1O[C@H](COC(c2ccccc2)(c2ccccc2)c2ccccc2)[C@@H](OS(=O)(=O)c2ccccc2)[C@H](OS(=O)(=O)c2ccccc2)[C@H]1OS(=O)(=O)c1ccccc1", "tested at": "concentration not given", "inhibition zone diameter": "17 ± 0.5 mm"}
{"SMILES": "CCOC(=O)C1=C(C)NC2=C(C(=O)CC(C)(C)C2)C1c1ccc(OCC(=O)NN=Cc2cccc([N+](=O)[O-])c2)cc1OCC(=O)NN=Cc1cccc([N+](=O)[O-])c1 (stereo not drawn)", "strain": "DSM 50070", "tested at": "concentration not given", "time": "24 h", "temperature": "37 °C", "inhibition zone diameter": "4.2 ± 0.3 mm"}
{"SMILES": "CCN(CC)CCn1nc(C23CC4CC(CC(C4)C2)C3)n(C)c1=S", "strain": "IFO 3448", "dose": "200 µg/disc", "time": "24 h", "temperature": "37 °C", "inhibition zone diameter": "< 10 mm"}
